Measured values pooled from the literature.
Protocols differ between the studies behind these lines. Numbers after ± are the reported error.

With Nc1ccccc1NC(=O)CCCCCCC(=O)Nc1ccccc1 the viability was 112% (HBL-1; 0.5 µM, 120 h).
N#Cc1ccc(N2CCN(Cc3ccc(-c4ccc(-c5nc6cc(C(F)(F)F)ccc6[nH]5)cc4)cc3)CC2)nc1 gave an IC50 of greater than 20 µM (Plasmodium yoelii; 17XL; 384-well).
CCCC(=O)Oc1ccc2[nH]c(C(=O)c3cc4ccccc4[nH]3)cc2c1 has an inhibition of 5% (HeLa expressing Ub(G76V)-GFP; Ub(G76V)-GFP degradation, inhibitor, cycloheximide chase; 12 µM).
The internalized activity of CC1(C)CN(CCCCC(=O)N[C@@H](CCCCNC(=O)CCCCCCC(=O)NCCCC[C@H](NC(=O)N[C@@H](CCC(=O)O)C(=O)O)C(=O)O)C(=O)O)CC[N]2CC(C)(C)[S][Tc]2(=[O])[S]1 (stereo partly shown) [technetium-99m labelled] is reported as 0.48 ± 0.01 %AD/mg protein (LNCaP; 25 nM, 1 h, 4 °C).
Under “LysoTracker Red positive cells”, C[C@H]1[C@@H](O)O[C@@H]2O[C@@]3(C)CC[C@H]4[C@H](C)CC[C@@H]1[C@@]24OO3 is recorded as 15.7% (MV4-11 cells; lysosomal disruption, flow cytometry; 5 µM, 24 h).
Under “log2 fold change”, Cn1cc(-c2ccc(-c3cncc(Cl)c3N3CCC4(CCNC4=O)CC3)cc2)cn1 is recorded as 3 (COLO 205; gene expression, microarray, measured: ISG15 mRNA; concentration not given, 6 h; baseline: untreated cells).
For COc1cc2c(cc1-c1c(C)noc1C)ncc1[nH]c(=O)n([C@H](C)c3ccccn3)c12, the viability was 20.3% (HBL-1; 1 µM, 120 h).
Under “average fractional effect”, CC(=O)Nc1cccc(-n2c(=O)n(C3CC3)c(=O)c3c(Nc4ccc(I)cc4F)n(C)c(=O)c(C)c32)c1 is recorded as 18% (LoVo (KRAS G13D); cell viability, resazurin; 1.56 nM, 72 h; baseline: DMSO).
For CC(C)C[C@@H](C=O)NC(=O)[C@H](CC(C)C)NC(=O)[C@H](CC(C)C)NC(=O)OCc1ccccc1, the remaining activity was 6.2% (HeLa expressing Ub(G76V)-GFP; Ub(G76V)-GFP degradation, cycloheximide chase; 10 µM; baseline: DMSO).
For CO[C@@]12[C@H](COC(N)=O)C3=C(C(=O)C(C)=C(N)C3=O)N1C[C@@H]1N[C@@H]12, the inhibition was 94.1% (BT-12; cell viability, MTT; 10 µM, 72 h).
CCn1cc(-c2cc(Cn3ccnc3)cc3c2CCN([C@H](c2cc(OC)ccn2)C2CC2)C3=O)c(C(F)(F)F)n1 gave an EC50 of greater than 30 µM (LK-2; cell growth, inhibitor; 120 h).
CC(C)c1nc(CN(C)C(=O)N[C@H](C(=O)N[C@@H](Cc2ccccc2)C[C@H](O)[C@H](Cc2ccccc2)NC(=O)OCc2cncs2)C(C)C)cs1: mislocalization “decreased” (DYT1 ΔE cells; torsinA ΔE localization; 10 µM, with: ISRIB 50 nM).
COc1ccc(S(=O)(=O)N(CCO)c2ccccc2CN(C)C/C=C/c2ccc(Cl)cc2)cc1 gave an inhibition of 13% (HeLa expressing Ub(G76V)-GFP; Ub(G76V)-GFP degradation, cycloheximide chase; 12 µM).
For O=C(/C=C\n1cnc(-c2cc(C(F)(F)F)cc(C(F)(F)F)c2)n1)NNc1cnccn1, the inhibition was 89.2% (BT-12; cell viability, MTT; 10 µM, 72 h).
COc1ccccc1S(=O)(=O)Nc1ccc2c(c1)CN(C)C(=O)N2 gave a viability of 77.1% (HBL-1; 1 µM, 120 h).
With COC[C@H](NC(=O)[C@H](CCC(=O)NC(C)(C)C)NS(=O)(=O)c1ccc(C)cc1)C(=O)NCc1ccc(F)c2ccccc12 the EC10 was 0.02 µM (MM1.S; cell viability, CellTiter-Glo; 72 h).
With O=C(CCCN1C(=O)c2cccc3cccc(c23)C1=O)NO the viability was 88.8% (HBL-1; 1 µM, 120 h).
c1ccc2[nH]ccc2c1: “mRNA level, LS mean” 15.2 counts per million (HCT-8; RNA-seq, measured: YPEL1; concentration not given).
The inhibition of CCN(CCO)CCCC(C)Nc1ccnc2cc(Cl)ccc12 (stereo not shown) is reported as 27 ± 23% (human PBMC; qRT-PCR, measured: IFI6 mRNA; 1000 nM, with: ssRNA).
With NC(=O)[C@H](CCCN=C(N)CF)NC(=O)c1ccccc1 the viability was 134% (HBL-1; 0.1 µM, 120 h).
The selectivity ratio of CCCOc1nc(-c2cccc(O)c2)cc(-c2cc3cc(Cl)ccc3nc2N2CCOCC2)c1C#N is reported as 0.25 (NFS-60; MTT; baseline: WI-38 EC50 over NFS-60 IC50).
For Oc1cc(O)cc(/C=C/c2ccc(O)c(O)c2)c1, the viability was 122% (HBL-1; 0.1 µM, 120 h).
The IC50 of Cc1cc2nc(-c3ccc(C(=O)NC4CCN(Cc5ccccc5)CC4)s3)[nH]c2cc1C is reported as greater than 20 µM (Plasmodium yoelii; 17XL; 384-well).
COc1cc(OC)c2c(=O)[nH]c(-c3cc(C)c(OCCO)c(C)c3)nc2c1 gave a viability of 120% (HBL-1; 0.1 µM, 120 h).
For CCCCN1C[C@H](O)[C@@H](O)[C@@H](O)[C@H]1CO, the IC50 was 16.1 µM (sample G patient fibroblasts; GlcCer level lowering, LC-MS/MS, measured: GlcCer d18:1/16:0; 216 h).

A few entries again:
Under “LysoTracker Red positive cells”, C[C@H]1[C@@H](O)O[C@@H]2O[C@@]3(C)CC[C@H]4[C@H](C)CC[C@@H]1[C@@]24OO3 is recorded as 15.7% (MV4-11 cells; lysosomal disruption, flow cytometry; 5 µM, 24 h).
CCCC(=O)Oc1ccc2[nH]c(C(=O)c3cc4ccccc4[nH]3)cc2c1 has an inhibition of 5% (HeLa expressing Ub(G76V)-GFP; Ub(G76V)-GFP degradation, inhibitor, cycloheximide chase; 12 µM).
The selectivity ratio of CCCOc1nc(-c2cccc(O)c2)cc(-c2cc3cc(Cl)ccc3nc2N2CCOCC2)c1C#N is reported as 0.25 (NFS-60; MTT; baseline: WI-38 EC50 over NFS-60 IC50).
